Measurements collected from several papers.
Parts stem from different laboratories: compare values within a part only. Substitutions count along the parent as printed.

Block 1 — target: CCNB1, cyclin fold, Cln2 fusion (human); method: yeast growth competition, sequencing; matrix: yeast; notes: weak parent motif; relative to: not given; reading: higher = stronger binding
Starting sequence: CDC6 docking peptide (human); TLKGRRLVFDNQL
Substitution	normalised enrichment score
TVKGRRLVFDNQL [L2V]	0.626
TLKGRRAVFDNQL [L7A]	0.422
ILKGRRLVFDNQL [T1I]	0.26
TLKGRRLVFYNQL [D10Y]	0.559
TLKLRRLVFDNQL [G4L]	-0.278

Block 2 — method: protein-binding microarray; molecule type: double-stranded DNA, one strand shown; matrix: in vitro; concentration: not given; reading: higher = stronger binding
Target: Myc proto-oncogene protein, bHLH-zipper, MAX partner unstated (MYC, Homo sapiens, UniProt P01106, residues 368-449)
Sequence of UniProt P01106 (368-449, looked up): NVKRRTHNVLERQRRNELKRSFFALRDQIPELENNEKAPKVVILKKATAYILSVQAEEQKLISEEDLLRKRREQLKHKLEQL
Notes: k-mer, scored over probes, only values ≥0.25
Strand	E-score
ACGCGGGC	0.293
GCCATGGC	0.284
CGCCACGC	0.45
GTCACGCA	0.302
ACACACAT	0.338
CATGGACA	0.373
ACGTGGGC	0.419

Block 3 — method: protein-binding microarray; molecule type: double-stranded DNA, one strand shown; matrix: in vitro; concentration: 250 nM; notes: 60-bp whole probe; with: salmon DNA 0.4 mg/ml; relative to: random background probes; reading: higher = stronger binding; constant ends, left off below: GCCTAGCAC … GTCTTGATTCGCTTGACGCTGCTG
Target: Interferon regulatory factor 5, full length, phosphomimetic (IRF5, Homo sapiens, UniProt Q13568-2, residues 1-514, K96S/S451D/S453D/S456D/S462D)
Strand	log fluorescence [z-score]
TGAGGTATCGGGTATCGGTTAGTGCTA	5.58
GACGATCTCCTTATCCTGACGTGCTAG	-0.175
TTAGACATCGGGTATCGATTAGTGCTA	3.61
TTCGGACTGGACTTTCGGTTAGTGCTA	9.73
GACGGTTTCCTACTGGTGACGTGCTAG	0.427
TTAGGTCACCTTCTCCTTTAGTGCTAG	-0.0348
TCACATCTGATTTCTCAAACTGTGCTA	0.798
TTAGGTCTCCTTCTCCTGTAGTGCTAG	-0.124
TCATTTTTTTCTTTTATACTGTGCTAG	1.82
GACGGACTGGACTTGCGGGACGTGCTA	-0.262

Single results of other studies
Molecule	target	assay	system	conditions	how to read	quantity	result
PhoQ, residues 284 288 289 292 302 303 SIHMAM	PhoP, residues 12 14 15 18 19 MHTVL (Escherichia coli, UniProt P23836)	Sort-seq, item: YFP reporter	E. coli	PhoQ-PhoP variant library, with: 10 µM Mg2+	relative to: high Mg2+ state, higher = stronger signaling	fold induction	14.4

Some of these lines once more (block 3):
Strand	log fluorescence [z-score]
TTAGGTCACCTTCTCCTTTAGTGCTAG	-0.0348
GACGGTTTCCTACTGGTGACGTGCTAG	0.427
